Assay results of several laboratories.
Compare with care: the assays were run in different laboratories. ± marks the error that the study gave.

Substance	assay	system	conditions	how to read	endpoint	value
COC(=O)C[C@](O)(CCCC(C)(C)O)C(=O)O[C@@H]1C(OC)=C[C@]23CCCN2CCc2cc4c(cc2[C@H]13)OCO4		CD1 mouse, brain	oral, 1 mg/kg, 24 h, below quantification limit 1.00 ng/mL		tissue concentration	not detected
O=C(Cc1cccc(OC(F)(F)F)c1)Nc1ccc(CCCCc2nnc(NC(=O)Cc3ccccn3)s2)nn1		human patients, plasma	oral, 600 mg three times daily fasted, cycle 1 day 15 steady state		Cmin	231 ng/mL
CN[C@H](CC(C)C)C(=O)N[C@H]1C(=O)N[C@@H](CC(N)=O)C(=O)N[C@H]2C(=O)N[C@H]3C(=O)N[C@H](C(=O)N[C@H](C(=O)O)c4cc(O)cc(O)c4-c4cc3ccc4O)[C@H](O)c3ccc(c(Cl)c3)Oc3cc2cc(c3O[C@@H]2O[C@H](CO)[C@@H](O)[C@H](O)[C@H]2O[C@H]2C[C@](C)(N)[C@H](O)[C@H](C)O2)Oc2ccc(cc2Cl)[C@H]1O		BALB/c mouse, serum	iv, dose not given		serum total protein	6 ± 0.2 g/dL
Cc1ccc(Nc2nccc(N(C)c3ccc4c(C)n(C)nc4c3)n2)cc1S(N)(=O)=O	equilibrium dialysis	patients, albumin below sample A g/L, plasma	6 h, 37 °C, median		fraction unbound	0.000227 ± 0.000122
CCCC[C@H](NC(C)=O)C(=O)N[C@H]1CCC(=O)NC[C@@H](C(=O)N[C@@H](Cc2c[nH]c3ccccc23)C(N)=O)NC(=O)[C@H](CCCNC(=N)N)NC(=O)[C@@H](Cc2ccccc2)NC(=O)[C@H](Cc2c[nH]cn2)NC1=O		healthy volunteers, both sexes, plasma	subcutaneous, 3.0 mg single dose		AUC(0-inf), geometric mean	0.157 µg·h/mL
CNC(=O)c1cc(Oc2ccc(NC(=O)Nc3ccc(Cl)c(C(F)(F)F)c3)c(F)c2)ccn1		healthy male volunteers, plasma	topical ocular, 0.75 mg twice daily	relative to: last dose over first dose	accumulation ratio of Cmax	24
COc1cccc(N2CCN(C3=Nc4c(F)cccc4[C@H](CC(=O)O)N3c3cc(C(F)(F)F)ccc3OC)CC2)c1	UHPLC-MS/MS	healthy women, plasma	intravenous infusion, 240 mg single dose, 30 min infusion, HPβCD formulation		volume of distribution	124 ± 44.6 L
Cn1c(-c2ccc(C(N)=O)cc2F)nnc1C(C)(C)Oc1c(F)cc(Cl)cc1F		young Japanese adults, plasma	oral, 50 mg single dose, day 1, high-dose multiple-dose study		Cmax median	681 ng/mL
NC(=O)N1CCC(CC(=O)N2CCC([C@H]3c4ncc(Br)cc4CCc4cc(Cl)cc(Br)c43)CC2)CC1		human, plasma	oral, 150 mg twice daily, cycle 2 day 15, with: gemcitabine 750 mg/m2		AUC(tau)	15.3 µg·h/mL
CC(C)=CCC[C@](C)(O[C@@H]1O[C@H](CO)[C@@H](O)[C@H](O)[C@H]1O)[C@H]1CC[C@]2(C)[C@@H]1[C@H](O)C[C@@H]1[C@@]3(C)CC[C@H](O)C(C)(C)[C@@H]3[C@@H](O[C@@H]3O[C@H](CO)[C@@H](O)[C@H](O)[C@H]3O)C[C@]12C		Sprague Dawley rat, male, plasma	oral, 25 mg/kg, in red ginseng extract		CL/F	16.8 ± 5.5 L/h/kg
CC1=C2C[C@H]3[C@@H](CC[C@@H]4C[C@H](NS(C)(=O)=O)CC[C@@]43C)[C@@H]2CC[C@@]2(C1)O[C@@H]1C[C@H](C)CN[C@H]1[C@H]2C		patients, plasma	oral, 130 mg daily, day 22, cycle 1		AUC(0-24)	6.15 µg·h/mL
COC(=O)c1ccc2c(c1)NC(=O)/C2=C(\Nc1ccc(N(C)C(=O)CN2CCN(C)CC2)cc1)c1ccccc1		human, Child-Pugh A hepatic impairment, plasma	oral, 100 mg, single dose, fed	adjusted geometric mean	AUC(0-tz)	0.193 µg·h/mL
CC[C@H](C)[C@H](NC(=O)[C@H](CCCNC(=N)N)NC(=O)[C@@H]1CCCN1C(C)=O)C(=O)N[C@@H](CC(=O)O)C(=O)N[C@H](C(=O)N[C@@H](CCCNC(=N)N)C(=O)N[C@H](C(=O)N[C@@H](CC(=O)O)C(=O)N1CCC[C@H]1C(N)=O)[C@@H](C)CC)[C@@H](C)CC	rotational rheometry	2% w/v aqueous solution	shear rate range 1-1000 s^-1		viscosity	1250 ± 26.4 Pa·s
des-acyl ghrelin (human)		mouse, wild type, hippocampus	intravenous, 10 min		brain/serum ratio	6.92 µL/g
CC(C)C[C@H](NC(=O)[C@H](CCc1ccccc1)NC(=O)CN1CCOCC1)C(=O)N[C@@H](Cc1ccccc1)C(=O)N[C@@H](CC(C)C)C(=O)[C@@]1(C)CO1		human patients, plasma	intravenous infusion 10 min, 20 mg/m^2, day 1 of cycle 1, KRd regimen		steady-state volume of distribution	10.9 ± 4.39 L
CNC(=O)c1ccc(-c2cnc3ncc(Cc4ccc5ncccc5c4)n3n2)cc1F		human, moderate hepatic impairment (Child-Pugh B), plasma	oral, 200 mg single dose		half-life (geometric mean)	5.77 h
C[C@@H]1CCC[C@H](n2cnc(-c3cc(Cl)ccc3-n3cc(Cl)nn3)cc2=O)c2cc(ccn2)-c2c(cnn2C(F)F)NC1=O		human, plasma	oral, 4 mg, single dose, fasted, healthy volunteers		AUC(0-inf)	0.21 µg·h/mL
CCn1cc(-c2nc(C)no2)c(=O)c2cc(F)c(N3CCC(C)CC3)cc21	metabolic stability	human, liver microsomes	1 µM		microsomal CLint	12.4 µL/min/mg
CC[C@H](C)[C@@H]1NC(=O)[C@H](Cc2ccc(O)cc2)NC(=O)[C@@H](N)CSSC[C@@H](C(=O)N2CCC[C@H]2C(=O)N[C@@H](CC(C)C)C(=O)NCC(N)=O)NC(=O)[C@H](CC(N)=O)NC(=O)[C@H](CCC(N)=O)NC1=O	ELISA	knock-out male mice lacking compound, plasma	intraperitoneal, 12 µg total, total area from zero		AUC(0-t)	14900 ± 1930 pg·30 min/sample
CC(C)C[C@H](NC(=O)[C@H](CCCNC(=N)N)NC(=O)[C@H](CC(N)=O)NC(=O)[C@H](CC(=O)O)NC(=O)[C@H](CCCNC(=N)N)NC(=O)CNC(=O)CNC(=O)CNC(=S)Nc1ccc(C[C@H]2CN(CC(=O)O)CCN(CC(=O)O)CCN2CC(=O)O)cc1)C(=O)N[C@@H](CC(N)=O)C(=O)N[C@H](C(=O)NCC(=O)NCC(=O)N[C@H](C(=O)N[C@@H](Cc1ccc(O)cc1)C(=O)N[C@@H](Cc1ccccc1)C(=O)N[C@@H](CC(C)C)C(=O)N[C@H](C(=O)N[C@H](C(=O)N[C@@H](CCCNC(=N)N)C(=O)N[C@@H](CCC(N)=O)C(=O)O)[C@@H](C)O)[C@@H](C)O)[C@@H](C)O)C(C)C [fluorine-18 labelled]	radio-HPLC	mouse (HepG2 tumour-bearing), kidney	intravenous, 5.55 MBq, 1 h		intact parent radiotracer	7.7 ± 2.56%
COc1cc(/C=C/C(=O)CC(=O)/C=C/c2ccc(O)c(OC)c2)ccc1O		C57BL/6J mouse, cerebral cortex	10 µg IN, 100 µg IP, 30 min, I-125 labelled	relative to: IN over IP	brain uptake ratio	3.01
O=C(O)C[C@H](O)C[C@H](O)/C=C/c1c(C2CC2)nc2ccccc2c1-c1ccc(F)cc1		healthy Chinese female volunteers, plasma	oral, 2 mg once daily, multiple dose		volume of distribution	175 L
CC[C@H](C)[C@H](NC(=O)[C@H](CCC(N)=O)NC(=O)[C@H](Cc1c[nH]cn1)NC(=O)[C@H](C)NC(=O)[C@H](CC(C)C)NC(=O)[C@H](CCCCN)NC(=O)[C@H](CCC(N)=O)NC(=O)[C@@H](NC(=O)[C@@H](NC(=O)[C@@H]1CSSC[C@H](NC(=O)CNC(=O)[C@H](Cc2ccccc2)NC(=O)[C@H](CO)NC(=O)[C@H](CCCNC(=N)N)NC(=O)[C@H](CC(C)C)NC(=O)CNC(=O)[C@H](CCC(N)=O)NC(=O)[C@H](Cc2ccccc2)NC(=O)[C@H](CC(N)=O)NC(=O)[C@H](CC(N)=O)NC(=O)[C@H](CCSC)NC(=O)[C@H](CO)NC(=O)[C@H](CCC(N)=O)NC(=O)[C@H](CCCNC(=N)N)NC(=O)[C@@H](N)Cc2ccc(O)cc2)C(=O)N[C@@H](CCCNC(=N)N)C(=O)N[C@@H](Cc2ccccc2)C(=O)NCC(=O)N[C@@H]([C@@H](C)O)C(=O)N1)[C@@H](C)O)C(C)C)C(=O)N[C@@H](Cc1ccc(O)cc1)C(=O)N[C@@H](CCC(N)=O)C(=O)N[C@@H](Cc1ccccc1)C(=O)N[C@H](C(=O)N[C@@H](CC(=O)O)C(=O)N[C@@H](CCCCN)C(=O)N[C@@H](CC(=O)O)C(=O)N[C@@H](CCCCN)C(=O)N[C@@H](CC(=O)O)C(=O)N[C@@H](CC(N)=O)C(=O)N[C@H](C(=O)N[C@@H](C)C(=O)N1CCC[C@H]1C(=O)N[C@@H](CCCNC(=N)N)C(=O)N[C@@H](CO)C(=O)N[C@@H](CCCCN)C(=O)N[C@H](C(=O)N[C@@H](CO)C(=O)N1CCC[C@H]1C(=O)N[C@@H](CCC(N)=O)C(=O)NCC(=O)N[C@@H](Cc1ccc(O)cc1)C(N)=O)[C@@H](C)CC)C(C)C)[C@@H](C)O		healthy male humans	dose not given, single dose, medium and high dose		duration of Wenckebach atrioventricular block	≤ 1 min

Substance	assay	system	conditions	how to read	endpoint	value
O=C1N=C(N2CCOCC2)CN1c1ccc(Cl)cc1		beagle dog, male, plasma	oral, 30 mg/kg, tablets, fasted		Cmax	16000 ng/mL
CC1(C)Oc2cc3oc(=O)ccc3cc2C[C@@H]1O		male CD-1 mouse, plasma	oral gavage, 80 mg/kg daily, 4 weeks		plasma Gluc level	336 ± 37.2 mg/dL
CCn1nc(C2CC2)cc1Nc1nc(C(=O)NCCCCCc2cccc3c2CN(C2CCC(=O)NC2=O)C3=O)nc2[nH]c3cc(-c4c(C)noc4C)c(OC)cc3c12 (stereo not shown)		female SCID C.B-17 mouse, RS4;11 xenograft, tumour	intravenous, 5 mg/kg single, 3 h		concentration in tumour	86 ng/g
CS(=O)(=O)n1cc2c(n1)CN([C@H]1CO[C@H](c3cc(F)ccc3F)[C@@H](N)C1)C2		healthy Japanese men, fasted, plasma	oral, 25 mg single dose, 168 h		plasma concentration	0.02 µM
Cc1nc(Nc2ncc(C(=O)Nc3c(C)cccc3Cl)s2)cc(N2CCN(CCO)CC2)n1		C57BL/6 mouse, male, Abcc4 knock-out, spleen	oral, 10 mg/kg, 5 min		concentration	26.7 ± 7.51 ng/g
CCN1CCN(Cc2ccc(NC(=O)c3ccc(C)c(NC(=O)c4cncc(-c5cccs5)c4)c3)cc2C(F)(F)F)CC1		C57BL/6 mouse, serum	intraperitoneal, 20.0 mg/kg daily for 10 days, day 11	relative to: vehicle	serum creatinine	decreased
OC[C@H]1O[C@@H](c2ccc(Cl)c(Cc3ccc(O[C@H]4CCOC4)cc3)c2)[C@H](O)[C@@H](O)[C@@H]1O	HPLC-MS/MS	healthy Chinese volunteers, fasting	oral, 10 mg tablet, 0.5 h		plasma concentration	103 ± 61 ng/mL
O=C(c1cccnc1-c1ccncc1)N1CCC(O)(Cc2ccccc2)CC1		healthy human, urine	oral, 600 mg once daily, day 1, arithmetic mean		renal clearance	5.67 mL/min
CCCC[C@@H]1NC(=O)[C@@H](NC(=O)[C@H](CCC(=O)O)NC(=O)CNC(=O)CN2CCN(CC(=O)O)CCN(CC(=O)O)CCN(CC(=O)O)CC2)CCCCNC(=O)C[C@@H](C(N)=O)NC(=O)[C@H](C(C)C)NC(=O)[C@@H]2CCCN2C(=O)[C@H](CCCNC(=N)N)NC(=O)CNC(=O)[C@H](Cc2c[nH]c3ccccc23)NC(=O)[C@H](CCCNC(=N)N)NC(=O)[C@@H](Cc2ccccc2)NC(=O)[C@H](Cc2c[nH]cn2)NC(=O)[C@H](CCC(=O)O)NC1=O [indium-111 labelled]		C57 mice, B16/F10 lung metastatic melanoma, muscle	intravenous, 0.037 MBq, 2 h		tissue uptake	0.04 ± 0.03 %ID/g
Cc1nc2cccc(OCC(C)(C)C(=O)NC(C)C)c2c(N)c1C(=O)O		female Sprague-Dawley rat, plasma	dietary, 100 mg/kg/day, day 90		Tmax	12 h
Cl.Cl.NCCCn1c2c(c3ccc(N)cc3c1=O)C(=O)c1ccccc1-2		Sprague-Dawley rat, female, perirenal fat	oral, 40 mg/kg/day for 3 days, 3 h after last dose, pooled samples		tissue concentration	0.28 µg/g
C[C@]12CC[C@@H]3c4ccc(O)cc4CC[C@H]3[C@@H]1C[C@@H](O)[C@@H]2O	GC-MS	breast cancer women on NSAI, serum	vaginal, 0.03 mg daily, 2 h, day 28		mean serum concentration	0.00196 ng/mL
O=C(CCCCCCC(=O)Nc1ccccc1)NO		patients, serum	oral, 1000 mg, cycle 1, with: flavopiridol		AUC(0-7 h)	40.2 µM·h
CC(=O)O[C@@]12CO[C@@H]1C[C@H](O)[C@@]1(C)C(=O)[C@H](O)C3=C(C)[C@@H](OC(=O)[C@H](O)[C@@H](NC(=O)OC(C)(C)C)c4ccccc4)C[C@@](O)([C@@H](OC(=O)c4ccccc4)[C@H]21)C3(C)C		female Sprague-Dawley rat, plasma	intravenous, 5 mg/kg		C0	123 ng/mL
C=CC(N)CCC(=O)O (stereo not shown)		male Sprague-Dawley rat, plasma	oral, 1.0 mg/kg, formulation 3, with: low-fat infant formula 1500 mg/kg		clearance	0.563 ± 0.012 L/h/kg
CCCOc1ccc([C@H]2CNC(=O)N2c2ccc3[nH]cnc3c2)cc1		elderly human volunteers fasted, plasma	oral capsule, 300 mg twice daily, day 7, geometric mean		effective half-life	2.85 h
liraglutide	equilibrium dialysis	human plasma 10% diluted	10 nM, 4 to 5 h, pH 7.4, 37 °C, inner-outer ratio 100:1		plasma protein binding	99.2%
COc1cc2c(Oc3ccc4[nH]c(C)cc4c3F)ncnc2cc1OCCCN1CCCC1		human patients, plasma	oral, 30 mg, cycle 2 day 1, geometric mean, with: pemetrexed		AUC, steady state	1.21 µg·h/mL
CC(C)NC[C@@H](C(=O)N1CCN(c2ncnc3c2[C@H](C)C[C@H]3O)CC1)c1ccc(Cl)cc1		human, Mild hepatic function, plasma	oral, 100 mg single dose, NCI classification, arithmetic mean		t1/2	59.9 h
Nc1cc(F)ccc1NC(=O)c1ccc(CNC(=O)/C=C/c2cccnc2)cc1		Japanese patients, urine	oral, 30 mg twice weekly, cycle 1 day 25		renal clearance	28.5 mL/min
CC(=O)N[C@@H](Cc1ccccc1)C(=O)N[C@H]1CCCNC(=O)[C@H](CCCNC(=N)N)NC(=O)[C@H](Cc2c[nH]c3ccccc23)NC(=O)[C@@H](CC2CCCCC2)NC(=O)[C@@H]2CCCN2C1=O		C57BL/6J mice, brain	subcutaneous, 1 mg/kg		absorption half-life	7.16 min
TFFYGGSRGRRNNFRTEEY-OH (C-acid)		peptide, male C57BL/6J mouse, brain	intravenous, 60 min, vascular blood washed out	relative to: injected dose	brain uptake	0.032 ± 0.02%
CN(C)C/C=C/C(=O)Nc1cc2c(Nc3ccc(F)c(Cl)c3)ncnc2cc1O[C@H]1CCOC1		human, plasma	oral, 40 mg once daily, day 27, geometric mean		half-life at steady state	34 h
